Measurements pooled from the literature.
Parts stem from different laboratories: compare values within a part only.
UniProt P29597, sequence (whole entry, looked up): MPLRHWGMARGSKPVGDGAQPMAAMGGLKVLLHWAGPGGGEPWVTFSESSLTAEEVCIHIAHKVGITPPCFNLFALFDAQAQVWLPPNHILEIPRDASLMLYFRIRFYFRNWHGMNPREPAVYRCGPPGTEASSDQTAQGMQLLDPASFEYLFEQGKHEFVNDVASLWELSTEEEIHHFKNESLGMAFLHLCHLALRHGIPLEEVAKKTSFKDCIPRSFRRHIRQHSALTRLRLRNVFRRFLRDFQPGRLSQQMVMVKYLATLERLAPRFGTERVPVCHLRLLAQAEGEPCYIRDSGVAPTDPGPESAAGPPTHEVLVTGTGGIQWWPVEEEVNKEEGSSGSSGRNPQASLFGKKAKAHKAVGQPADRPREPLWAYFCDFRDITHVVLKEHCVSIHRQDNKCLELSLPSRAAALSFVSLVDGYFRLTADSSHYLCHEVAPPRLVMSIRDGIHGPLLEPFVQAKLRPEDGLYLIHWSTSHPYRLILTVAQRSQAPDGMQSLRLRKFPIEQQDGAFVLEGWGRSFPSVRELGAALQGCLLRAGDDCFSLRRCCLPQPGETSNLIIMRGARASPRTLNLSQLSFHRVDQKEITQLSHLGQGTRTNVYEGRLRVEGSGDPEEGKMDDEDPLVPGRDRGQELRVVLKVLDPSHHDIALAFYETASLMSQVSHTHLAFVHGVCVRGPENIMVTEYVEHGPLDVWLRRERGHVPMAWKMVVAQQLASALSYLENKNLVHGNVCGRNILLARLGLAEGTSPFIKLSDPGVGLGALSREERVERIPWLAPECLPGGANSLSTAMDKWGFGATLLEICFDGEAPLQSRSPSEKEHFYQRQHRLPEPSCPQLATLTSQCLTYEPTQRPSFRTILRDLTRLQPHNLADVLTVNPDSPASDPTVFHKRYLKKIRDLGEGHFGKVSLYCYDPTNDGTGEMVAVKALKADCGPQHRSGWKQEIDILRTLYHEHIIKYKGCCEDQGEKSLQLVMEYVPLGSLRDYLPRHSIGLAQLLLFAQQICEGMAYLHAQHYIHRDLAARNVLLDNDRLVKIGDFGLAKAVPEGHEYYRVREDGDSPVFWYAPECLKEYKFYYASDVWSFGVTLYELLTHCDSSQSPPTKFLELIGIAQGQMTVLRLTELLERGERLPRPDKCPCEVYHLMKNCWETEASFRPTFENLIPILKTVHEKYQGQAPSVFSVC
UniProt Q13873, sequence (whole entry, looked up): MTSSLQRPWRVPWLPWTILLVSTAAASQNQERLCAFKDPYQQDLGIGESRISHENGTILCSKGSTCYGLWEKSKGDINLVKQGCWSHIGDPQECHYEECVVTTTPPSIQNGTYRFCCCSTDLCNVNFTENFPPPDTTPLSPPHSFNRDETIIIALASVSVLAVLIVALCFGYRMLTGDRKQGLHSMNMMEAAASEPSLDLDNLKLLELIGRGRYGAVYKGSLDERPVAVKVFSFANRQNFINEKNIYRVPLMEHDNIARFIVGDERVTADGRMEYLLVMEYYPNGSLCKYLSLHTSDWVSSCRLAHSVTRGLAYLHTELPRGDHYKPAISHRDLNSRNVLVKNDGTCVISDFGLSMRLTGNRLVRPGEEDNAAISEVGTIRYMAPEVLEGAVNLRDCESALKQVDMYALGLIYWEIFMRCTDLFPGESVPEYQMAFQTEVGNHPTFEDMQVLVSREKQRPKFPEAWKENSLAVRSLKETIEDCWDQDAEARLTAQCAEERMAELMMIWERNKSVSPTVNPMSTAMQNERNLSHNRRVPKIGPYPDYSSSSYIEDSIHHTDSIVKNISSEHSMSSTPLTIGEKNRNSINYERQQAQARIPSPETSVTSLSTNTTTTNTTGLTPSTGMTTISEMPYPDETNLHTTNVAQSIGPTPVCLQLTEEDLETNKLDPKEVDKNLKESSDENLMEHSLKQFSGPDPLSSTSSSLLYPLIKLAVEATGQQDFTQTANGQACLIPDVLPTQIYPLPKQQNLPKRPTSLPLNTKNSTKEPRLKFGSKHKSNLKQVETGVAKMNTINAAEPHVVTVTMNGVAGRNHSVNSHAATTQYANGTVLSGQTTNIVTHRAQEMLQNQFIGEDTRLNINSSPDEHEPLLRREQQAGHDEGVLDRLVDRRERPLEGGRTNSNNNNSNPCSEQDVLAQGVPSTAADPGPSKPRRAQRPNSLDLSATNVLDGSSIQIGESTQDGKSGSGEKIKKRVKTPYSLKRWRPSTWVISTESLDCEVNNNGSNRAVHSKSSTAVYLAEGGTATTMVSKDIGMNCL
UniProt Q9NRH2, sequence (whole entry, looked up): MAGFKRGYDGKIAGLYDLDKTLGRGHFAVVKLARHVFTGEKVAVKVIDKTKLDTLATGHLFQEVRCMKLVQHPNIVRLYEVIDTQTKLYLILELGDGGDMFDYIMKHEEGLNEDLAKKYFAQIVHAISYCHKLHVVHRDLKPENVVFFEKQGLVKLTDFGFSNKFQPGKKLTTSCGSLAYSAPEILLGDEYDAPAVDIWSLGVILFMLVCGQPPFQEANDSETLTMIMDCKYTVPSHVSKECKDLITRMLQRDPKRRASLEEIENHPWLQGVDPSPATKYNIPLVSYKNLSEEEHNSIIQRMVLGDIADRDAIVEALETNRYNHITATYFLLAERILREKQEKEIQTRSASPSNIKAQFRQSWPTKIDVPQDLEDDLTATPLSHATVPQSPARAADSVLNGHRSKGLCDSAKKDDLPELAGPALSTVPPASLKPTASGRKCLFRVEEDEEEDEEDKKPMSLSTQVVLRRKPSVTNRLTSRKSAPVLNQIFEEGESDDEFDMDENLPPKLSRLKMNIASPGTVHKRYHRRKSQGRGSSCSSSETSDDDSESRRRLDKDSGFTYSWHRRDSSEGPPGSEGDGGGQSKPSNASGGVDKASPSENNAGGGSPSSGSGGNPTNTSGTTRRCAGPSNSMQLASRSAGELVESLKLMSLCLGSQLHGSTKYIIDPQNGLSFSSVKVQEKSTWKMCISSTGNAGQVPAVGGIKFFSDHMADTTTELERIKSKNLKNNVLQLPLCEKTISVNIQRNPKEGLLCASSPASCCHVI
UniProt Q13131, sequence (whole entry, looked up): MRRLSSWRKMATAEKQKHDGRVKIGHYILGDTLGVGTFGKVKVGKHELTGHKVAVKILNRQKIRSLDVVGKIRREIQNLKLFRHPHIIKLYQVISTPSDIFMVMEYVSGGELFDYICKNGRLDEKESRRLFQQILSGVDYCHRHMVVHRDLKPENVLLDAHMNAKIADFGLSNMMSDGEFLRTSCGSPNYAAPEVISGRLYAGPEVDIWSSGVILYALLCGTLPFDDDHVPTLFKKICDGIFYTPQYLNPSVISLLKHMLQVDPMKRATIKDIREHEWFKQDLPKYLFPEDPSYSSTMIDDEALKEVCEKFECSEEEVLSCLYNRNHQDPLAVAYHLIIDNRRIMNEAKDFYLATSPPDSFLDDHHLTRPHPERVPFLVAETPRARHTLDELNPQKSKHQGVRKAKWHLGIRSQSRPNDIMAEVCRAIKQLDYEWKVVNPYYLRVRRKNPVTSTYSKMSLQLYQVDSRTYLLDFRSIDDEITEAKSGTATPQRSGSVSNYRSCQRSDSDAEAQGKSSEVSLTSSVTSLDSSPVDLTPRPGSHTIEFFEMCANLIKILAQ

Set 1
Structure (SMILES): Cc1cc(C)c(-n2ccn3nc(-c4cccnc4)cc23)cc1NC(=O)c1cc(C#N)cc(S(F)(F)(F)(F)F)c1
Effect on: cell-free assay
Method: competition with immobilised ligand
Tested at: 0.1 µM
Endpoint: remaining binding
Non-receptor tyrosine-protein kinase TYK2, JH1 (TYK2, Homo sapiens, UniProt P29597): 76.9%
EGFR (Homo sapiens, UniProt P00533, del752-759): 91.6%
PRKAA1 (Homo sapiens, UniProt Q13131): 77%
SNRK (Homo sapiens, UniProt Q9NRH2): 100%
BMPR2 (Homo sapiens, UniProt Q13873): 89.4%

Set 2
Cell line: mouse MPNST tumor cells
Method: high-content nuclear imaging
Refers to: cell number
Tested at: 10 µM
Time: 12 h
Setting: mean of 2 replicates
Baseline: plate mean
Reading: higher = more cells
Endpoint: nuclei count
Cc1cc2c(cc1Cl)N(C(=O)Nc1ccc(Oc3cccnc3C)nc1)CC2: 0.145 z-score
CC(C)OC(=O)CCC/C=C\C[C@@H]1[C@@H](CC[C@@H](O)CCc2ccccc2)[C@H](O)C[C@@H]1O: -0.812 z-score
O=C(c1ccc(C(=O)N2CCC(N3CCCC3)CC2)c(Nc2ccccc2)c1)N1CCC(N2CCCC2)CC1: 1.05 z-score
Cc1cc([C@@H](C)Nc2ccccc2C(=O)O)c2nc(N3CCOCC3)cc(=O)n2c1: 0.77 z-score
CC(C)C[C@@H](C(=O)N[C@@H](Cc1ccc(OCc2ccccc2)cc1)C(=O)NC(C)(C)C)N(C)Cc1ccc(C(C)(C)C)cc1: 1.48 z-score

Set 3
Species: human
Matrix: microsomes or S9
Tested at: 2 µM
Time: 0.5 h
Endpoint: remaining compound
COc1ccc(-c2nnc(N(C)C)n2-c2ccc(C)cc2)c(OC)c1: 21.2%
CC1=CC[C@@H]2CN(C(=O)c3sc(C(C)C)nc3C)C[C@@H]2C1: 23.5%
CCn1ccc2cc(C(=O)N3C[C@@H](CN4C[C@@H](C)O[C@@H](C)C4)[C@@H](CO)C3)ccc21: 24.8%
COc1cc2c(Nc3ccc(Br)cc3F)ncnc2cc1OCCCN1CCOC(CO)C1 (stereo not drawn): 95%
Cc1cc(C)cc(-n2nc(NC(=O)NC3(c4noc(C)n4)CCC3)cc2C)c1: > 100%
O=C(C1=COCCO1)N(CCn1cccn1)c1nc2c(Cl)cccc2s1: 25%
CCOc1ccc(C2=NNC(c3cccnc3)=Nc3ccc(CC)cc32)cc1OCC: 42.9%
CN(C)S(=O)(=O)c1cc(C(=O)NC2CCCCC2)c(Cl)cc1Cl: 38.4%

Set 4
Target: Mitogen-activated protein kinase kinase kinase 8 (MAP3K8, Homo sapiens, UniProt P41279)
UniProt P41279, sequence (whole entry, looked up): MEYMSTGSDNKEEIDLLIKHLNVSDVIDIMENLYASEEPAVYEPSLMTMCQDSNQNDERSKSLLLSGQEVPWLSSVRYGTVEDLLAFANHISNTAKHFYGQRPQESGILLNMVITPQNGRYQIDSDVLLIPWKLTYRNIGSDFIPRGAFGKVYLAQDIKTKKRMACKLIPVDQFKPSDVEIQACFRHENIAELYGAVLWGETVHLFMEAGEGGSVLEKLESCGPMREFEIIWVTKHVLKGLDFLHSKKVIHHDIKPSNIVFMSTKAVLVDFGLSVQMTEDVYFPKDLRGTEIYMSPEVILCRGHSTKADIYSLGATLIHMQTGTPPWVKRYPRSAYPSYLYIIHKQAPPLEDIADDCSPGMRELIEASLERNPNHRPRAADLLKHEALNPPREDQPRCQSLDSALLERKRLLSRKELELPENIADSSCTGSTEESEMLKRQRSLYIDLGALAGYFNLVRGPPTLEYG
Effect on: enzyme activity
Mode: inhibitor
Tested at: 0.5 µM
Baseline: control
Endpoint: remaining activity
CCOC(=O)c1c(C)[nH]c(/C=C2\C(=O)Nc3ccccc32)c1C: 108%
Cc1nc(-c2ccccc2)c(-c2ccncc2)o1: 89.9%
CNC(=O)c1cc(Oc2ccc(NC(=O)Nc3ccc(Cl)c(C(F)(F)F)c3)cc2)ccn1: 93.6%
Cn1sc(=O)n(Cc2ccccc2)c1=O: 97.1%
Oc1ccc(-c2nc(-c3ccncc3)c(-c3ccc(F)cc3)[nH]2)cc1: 96.6%
O=C(Nc1cccc(Nc2cc(Nc3cccc(C(F)(F)F)c3)ncn2)c1)C1CC1: 98.4%
N#CC(C#N)=C(N)/C(C#N)=C/c1ccc(O)cc1: 96%
COc1cc2nccc(Oc3ccc(NC(=S)NC(=O)c4ccccc4C)cc3)c2cc1OC: 94.1%
COc1ccc(C(=O)Nc2sc3c(c2C(N)=O)CCCC3)cc1OC: 106%
CC(C)[C@H](CO)Nc1nc(Nc2cc(N)cc(Cl)c2)c2ncn(C(C)C)c2n1: 109%
COc1ccc(OC)c2c(=S)c3ccccc3[nH]c12: 111%
Cn1c2ccccc2c2c3c(c4c5ccccc5n(CCC#N)c4c21)CNC3=O: 111%
OCC(O)CCON=C1C(c2c(O)[nH]c3ccccc23)=Nc2ccccc21 (stereo not drawn): 123%
CO[C@H]1C[C@@H]2CC[C@@H](C)[C@@](O)(O2)C(=O)C(=O)N2CCCC[C@H]2C(=O)O[C@H]([C@H](C)C[C@@H]2CC[C@@H](O)[C@H](OC)C2)CC(=O)[C@H](C)/C=C(\C)[C@@H](O)[C@@H](OC)C(=O)[C@H](C)C[C@H](C)/C=C/C=C/C=C/1C: 99.8%
NCCNc1ncc(C(N)=O)c(Nc2cccc(C(F)(F)F)c2)n1: 94.8%

Some of these lines once more (set 3):
CN(C)S(=O)(=O)c1cc(C(=O)NC2CCCCC2)c(Cl)cc1Cl: 38.4%
CCOc1ccc(C2=NNC(c3cccnc3)=Nc3ccc(CC)cc32)cc1OCC: 42.9%
COc1ccc(-c2nnc(N(C)C)n2-c2ccc(C)cc2)c(OC)c1: 21.2%
